Published values pooled from the literature.
Lines come from different studies, so protocols differ. Several values in a cell are separate wells, animals, samples, runs or records. Numbers after ± are the reported error.
B1: human RBBP7; sequence looked up; chain ASKEMFEDTVEERVINEEYKIWKKNTPFLYDLVMTHALQWPSLTVQWLPEVTKPEGKDYALHWLVLGTHTSDEQNHLVVARVHIPNDDAQFDASHCDSDKGEFGGFGSVTGKIECEIKINHEGEVNRARYMPQNPHIIATKTPSSDVLVFDYTKHPAKPDPSGECNPDLRLRGHQKEGYGLSWNSNLSGHLLSASDDHTVCLWDINAGPKEGKIVDAKAIFTGHSAVVEDVAWHLLHESLFGSVADDQKLMIWDTRSNTTSKPSHLVDAHTAEVNCLSFNPYSEFILATGSADKTVALWDLRNLKLKLHTFESHKDEIFQVHWSPHNETILASSGTDRRLNVWDLSKIGEEQSAEDAEDGPPELLFIHGGHTAKISDFSWNPNEPWVICSVSEDNIMQIWQMAENIYNDEESDVTTSELEGQGS
B2: human hnRNP Q; sequence looked up; chain ATEHVNGNGTEEPMDTTSAVIHSENFQTLLDAGLPQKVAEKLDEIYVAGLVAHSDLDERAIEALKEFNEDGALAVLQQFKDSDLSHVQNKSAFLCGVMKTYRQREKQGTKVADSSKGPDEAKIKALLERTGYTLDVTTGQRKYGGPPPDSVYSGQQPSVGTEIFVGKIPRDLFEDELVPLFEKAGPIWDLRLMMDPLTGLNRGYAFVTFCTKEAAQEAVKLYNNHEIRSGKHIGVCISVANNRLFVGSIPKSKTKEQILEEFSKVTEGLTDVILYHQPDDKKKNRGFCFLEYEDHKTAAQARRRLMSGKVKVWGNVGTVEWADPIEDPDPEVMAKVKVLFVRNLANTVTEEILEKAFSQFGKLERVKKLKDYAFIHFDERDGAVKAMEEMNGKDLEGENIEIVFAKPPDQKRKERKAQRQAAKNQMYDDYYYYGPPHMPPPTRGRGRGGRGGYGYPPDYYGYEDYYDYYGYDYHNYRGGYEDPYYGYEDFQVGARGRGGRGARGAAPSRGRGAAPPRGRAGYSQRGGPGSARGVRGARGGAQQQRGRGVRGARGGRGGNVGGKRKADGYNQPDSKRRQTNNQNWGSQPIAQQPLQGGDHSGNYGYKSENQEFYQDTFGQQWK
B3: human hnRNP D; sequence looked up; chain SEEQFGGDGAAAAATAAVGGSAGEQEGAMVAATQGAAAAAGSGAGTGGGTASGGTEGGSAESEGAKIDASKNEEDEGHSNSSPRHSEAATAQREEWKMFIGGLSWDTTKKDLKDYFSKFGEVVDCTLKLDPITGRSRGFGFVLFKESESVDKVMDQKEHKLNGKVIDPKRAKAMKTKEPVKKIFVGGLSPDTPEEKIREYFGGFGEVESIELPMDNKTNKRRGFCFITFKEEEPVKKIMEKKYHNVGLSKCEIKVAMSKEQYQQQQQWGSRGGFAGRARGRGGGPSQNWNQGYSNYWNQGYGNYGYNSQGYGGYGGYDYTGYNNYYGYGDYSNQQSGYGKVSRRGGHQNSYKPY
UniProt Q64663, sequence (whole entry, unmodified, looked up): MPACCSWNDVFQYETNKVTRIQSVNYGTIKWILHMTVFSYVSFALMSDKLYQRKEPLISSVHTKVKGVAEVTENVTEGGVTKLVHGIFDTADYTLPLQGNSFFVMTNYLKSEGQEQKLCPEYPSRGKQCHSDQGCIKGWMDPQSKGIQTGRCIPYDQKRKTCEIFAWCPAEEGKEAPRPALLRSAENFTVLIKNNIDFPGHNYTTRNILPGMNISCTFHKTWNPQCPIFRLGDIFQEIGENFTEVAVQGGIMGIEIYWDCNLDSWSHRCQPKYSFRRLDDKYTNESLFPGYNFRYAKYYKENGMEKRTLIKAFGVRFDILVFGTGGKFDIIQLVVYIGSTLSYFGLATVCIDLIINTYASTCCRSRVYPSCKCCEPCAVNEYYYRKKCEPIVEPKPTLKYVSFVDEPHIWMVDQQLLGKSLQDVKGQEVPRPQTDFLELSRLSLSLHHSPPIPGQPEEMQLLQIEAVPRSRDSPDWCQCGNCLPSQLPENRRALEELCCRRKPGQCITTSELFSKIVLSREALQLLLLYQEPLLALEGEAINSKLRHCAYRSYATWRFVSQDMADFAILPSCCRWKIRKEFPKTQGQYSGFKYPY
UniProt P26368, sequence (whole entry, looked up): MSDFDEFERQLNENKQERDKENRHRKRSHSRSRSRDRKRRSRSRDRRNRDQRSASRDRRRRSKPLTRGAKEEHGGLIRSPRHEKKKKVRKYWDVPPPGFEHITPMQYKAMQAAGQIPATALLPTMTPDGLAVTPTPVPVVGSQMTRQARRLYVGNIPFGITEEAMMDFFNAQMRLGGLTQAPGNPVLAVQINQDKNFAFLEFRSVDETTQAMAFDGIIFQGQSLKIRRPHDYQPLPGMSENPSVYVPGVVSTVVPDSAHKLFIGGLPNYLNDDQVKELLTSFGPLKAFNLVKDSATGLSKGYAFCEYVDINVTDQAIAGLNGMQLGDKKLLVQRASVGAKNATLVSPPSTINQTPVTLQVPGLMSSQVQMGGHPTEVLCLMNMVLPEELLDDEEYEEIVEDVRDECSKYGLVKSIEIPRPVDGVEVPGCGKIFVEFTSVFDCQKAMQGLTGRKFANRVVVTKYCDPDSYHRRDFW
UniProt P29055, sequence (whole entry, looked up): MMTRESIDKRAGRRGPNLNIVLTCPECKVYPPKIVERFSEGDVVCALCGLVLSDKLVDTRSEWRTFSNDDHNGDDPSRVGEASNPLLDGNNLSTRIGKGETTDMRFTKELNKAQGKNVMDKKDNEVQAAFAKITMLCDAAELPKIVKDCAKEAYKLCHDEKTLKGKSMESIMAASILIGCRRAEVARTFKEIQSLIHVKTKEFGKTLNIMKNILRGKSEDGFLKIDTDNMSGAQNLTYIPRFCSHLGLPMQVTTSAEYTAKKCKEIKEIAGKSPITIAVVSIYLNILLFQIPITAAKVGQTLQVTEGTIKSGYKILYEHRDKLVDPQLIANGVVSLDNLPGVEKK

Substance	target or system	assay	system	conditions	scale	quantity	result
B1 (human RBBP7)	CYB5R4 knockout human cells	PP6 interaction, 3xFLAG-PP6C IP-MS	–	concentration not given	baseline: CYB5R4 KO over parental	log2 fold change	-0.61
FGA (Homo sapiens, UniProt P02671)	BMP1 (Homo sapiens, UniProt P13497)	cross-linking MS	–	together with: DSSO	–	cross-linked residues	K476 to K766
TTCCTGAAGGGGGGCTATAAAAGGGGGTGGGGGCGTCAAGTCAATCGGTCC (dsDNA; 5'-amino-C6 primer)	SUA7 full length assumed (Saccharomyces cerevisiae, UniProt P29055)	array	double-stranded DNA, one strand shown	TFIIB alone	–	Kd	2.73 ± 1.13 nM
PMESGICTIV	construct, MBP fusion, human SCRIB, PDZ 3-4	automated holdup	peptide, crude extract	concentration not given, corrected by standard peak, unit not given	baseline: biotin control resin, higher = stronger binding	binding intensity	0.0824
heparin sodium	–	–	human	intravenous infusion, 8 IU/kg/h, day 1 to 6	–	ACT Emax	128 s
B2 (human hnRNP Q)	PP6C (human)	co-immunoprecipitation, IP-MS	CYB5R4 knockout cells	concentration not given	baseline: CYB5R4 knockout over parental	log2 fold change	-0.54
MTVCNASQRQAHAQATAVSL	H2009	phage binding	peptide	–	baseline: targeting over control phage	selectivity ratio	2.2 ± 0.96
human ME2 Q51H	–	enzyme activity, NADH absorbance	–	without fumarate, together with: L-malate varied	–	Hill coefficient	1.65 ± 0.1
cotadutide	–	metabolomics, item: hepatic histidine	ob/ob mice on AMLN diet, NASH model, liver	dose not given	–	metabolite level	1.03 ± 0.03 scaled intensity
BzATP	P2X purinoceptor 7 (P2rx7, Rattus norvegicus, UniProt Q64663, R125A)	ion current, agonist, two-electrode voltage clamp	Xenopus oocytes	1.235 µM	–	normalized current	0.0843 and 0.154 and 0.122
human ME2 A65V mutant	–	enzyme activity, NADH absorbance	–	without fumarate, together with: L-malate varied	–	Hill coefficient	1.19 ± 0.07
NPDALPETLV	construct, MBP fusion, human SCRIB, PDZ 3-4	surface plasmon resonance	peptide	concentration not given	higher = stronger binding	normalised SPR binding response	10.7 normalised RU
QADPIQTAY	Jurkat expressing engineered TCR	NFAT-eGFP reporter, fluorescence microscopy	peptide	concentration not given, HLA-A*01:01 on EL4 cells	–	GFP-positive cells	0.462%
human endoplasmin	PP6C (human)	co-immunoprecipitation, IP-MS	CYB5R4 knockout cells	concentration not given	baseline: CYB5R4 knockout over parental	log2 fold change	-0.31
heparin	PC-12 cells	–	–	100 µg/mL, together with: HBGF-2	–	cells with neurites	< 5%
human AHSA1	CYB5R4 knockout human cells	PP4 interaction, 3xFLAG-PP4C IP-MS	–	concentration not given	baseline: CYB5R4 KO over parental	log2 fold change	-3.88
GSGAGICTIV	construct, MBP fusion, human SCRIB, PDZ 3-4	surface plasmon resonance	peptide	concentration not given	higher = stronger binding	normalised SPR binding response	6.6 normalised RU
AGGCUGUUUUAAUCUCUUCUAA (ssRNA)	U2AF2 148-342 (Homo sapiens, UniProt P26368)	MST	RNA	–	–	Kd	11500 ± 1180 nM
epoetin alfa	UT7/EPO	microarray, item: CCL2 (probe 216598_s_at)	–	5 U/mL, 90 min, together with: SCF 10 nM	baseline: vehicle	mRNA level	36.4 fold
human desmoplakin	PP6C (human)	co-immunoprecipitation, IP-MS	CYB5R4 knockout cells	concentration not given	baseline: CYB5R4 knockout over parental	log2 fold change	0.7
colistin	Enterobacter cloacae	broth microdilution	clinical isolate RKI-No_33/16	–	–	MIC	≤ 0.5 µg/mL
adrenomedullin	–	RP-HPLC	HALO Phenyl-hexyl column	25 µM, acetic acid/acetonitrile, 10 min gradient	–	retention time	4.62 min
PKRSFIESNV	construct, MBP fusion, human SCRIB, PDZ 3-4	automated holdup	peptide, purified PDZ protein	concentration not given, unit not given	baseline: biotin control resin, higher = stronger binding	binding intensity	0.607
B3 (human hnRNP D)	PP6C (human)	co-immunoprecipitation, IP-MS	CYB5R4 knockout cells	concentration not given	baseline: CYB5R4 knockout over parental	log2 fold change	-1.19
Peginesatide	UT7/EPO	phosphorylation, agonist, item: phospho-AKT	–	10 min	–	EC50	2.23 nM
caspofungin	–	–	adult ICU patients, mITT, serum	dose not given, day 30	–	alanine aminotransferase	20 U/L

For quick reference, copied from above:
Substance	target or system	assay	system	conditions	scale	quantity	result
Peginesatide	UT7/EPO	phosphorylation, agonist, item: phospho-AKT	–	10 min	–	EC50	2.23 nM
caspofungin	–	–	adult ICU patients, mITT, serum	dose not given, day 30	–	alanine aminotransferase	20 U/L
